Experimental data of several laboratories.
Compare with care: the assays were run in different laboratories. Several values in a cell are separate wells, animals, samples, runs or records. ± gives the spread as reported.

Structure (SMILES) = Cn1cncc1[C@@]1(N)c2ccc(C#N)c(c2)COc2cccc(c2)-c2cc(C#N)nc3ccc1cc23; cell line = T24/83; test = cell growth or viability, ATP luminescence; conditions = 96 h; IC50 = 0.0155 µM
Structure (SMILES) = Cc1ccc([N+](=O)[O-])cc1S(=O)(=O)N(C)/N=C/c1cnc2ccc(Br)cn12; cell line = COLO 205; test = cell viability, MTS; IC50 = 2.18 µM
Structure (SMILES) = CC[C@H](C)[C@H](NC(=O)[C@H](CCCCN)NC(=O)[C@H](CCCCN)NC(=O)C[C@@H](NC(=O)[C@@H](NC(=O)[C@H](CCCCN)NC(=O)[C@H](Cc1ccccc1)NC(=O)C[C@H](CC(C)C)NC(=O)CN)[C@@H](C)CC)[C@@H](C)CC)C(=O)N[C@@H](C)CC(=O)N[C@@H](CCCCN)C(=O)N[C@@H](CO)C(=O)N[C@@H](Cc1ccccc1)C(N)=O; cell line = NIH 3T3; test = cytotoxicity; IC50 = 90 µg/mL
Structure (SMILES) = C#CC[C@]1(O)C[C@H](C)N2CCc3cc(OCc4cc(C)cc(C)c4)c(OCc4cc(C)cc(C)c4)cc3[C@@H]2C1; cell line = ASPC1; test = cell growth or viability, MTT; IC50 = 0.618 µM
Structure (SMILES) = C=CC(=O)N1CCCC(n2c(=O)c3ncccc3n(Cc3ccc(Oc4ccccc4)cc3)c2=O)C1 (stereo not shown); cell line = SU-DHL-6; test = cell growth or viability, MTT; conditions = 72 h; IC50 = 0.5 µM
Structure (SMILES) = Nc1ncc(-c2cc(-c3cnn(CC(F)(F)F)c3)ncc2F)nc1C(=O)NC1CNCC(F)C1 (stereo not shown); cell line = DLD-1 BRCA2 knockout; test = cell viability; IC50 = 0.007 µM
Structure (SMILES) = CC(=O)NCCOCCNC(=O)c1cc(C(=O)N2CCNCCNCCNCC2)c(O)c(C(=O)N2CCNCCNCCNCC2)c1; cell line = WI-38; test = cell growth or viability, MTT; conditions = 24 h; IC50 = > 1000 µM
Structure (SMILES) = C=CCOCO[C@H](C(=O)NC[C@@H]1C[C@@H](OC)C(C)(C)[C@@H](C[C@@H](COC)OC)O1)[C@@]1(OC)CC(=C)[C@@H](C)[C@@H](C)O1; cell line = RAW264.7; test = cell viability, sulforhodamine B; conditions = 48 h, 37 °C, together with: 100 µM H2O2; IC50 = 0.603 ± 0.115 µM
Structure (SMILES) = COC(=O)N1c2ccc3c(nc(Cc4ccccc4)n3[C@@H]3CCC[C@@H](C(=O)O)C3)c2CC[C@@H]1C; cell line = MDA-MB-361; test = cell growth or viability, ATP luminescence; conditions = 10 days; IC50 = 2.1 µM
Structure (SMILES) = CNS(=O)(=O)Nc1nccc(Cc2c(C)c3ccc(Oc4ncccc4F)cc3oc2=O)c1F; cell line = HPAC; test = cell viability; conditions = 7 days; IC50 = 0.00573 µM
Structure (SMILES) = NCCOc1cc(NC(=O)c2cc(OCc3cn(Cc4ccc(C(=O)O)cc4)nn3)cc(C(=O)Nc3cc(OCCN)c4ccccc4n3)n2)nc2ccccc12; cell line = WI-38; test = cell growth or viability, ATP luminescence; conditions = 72 h; IC50 = > 40 µM
Structure (SMILES) = COc1ccc(C(O)=CC(=O)c2ccc(C(C)(C)C)cc2)cc1.[Ru+2].c1ccc(-c2cccc(-c3ccccn3)n2)nc1.c1cnccn1; cell line = HL-60; test = phototoxicity; conditions = light over 450 nm, 29.1 J/cm2; IC50 = 0.11 µM
Structure (SMILES) = COc1cc2ncnc(Nc3ccc(F)c(Cl)c3)c2cc1NC(=O)/C=C/CN1CCCCC1; cell line = Ba/F3 EGFR; test = cell growth or viability; conditions = 72 h; IC50 = 0.034 µM
Structure (SMILES) = CN1CCC(N[C@@H]2CCc3[nH]c4c(C(N)=O)ccc(-c5ccccc5Cl)c4c3C2)CC1; cell line = Ramos; test = cell growth or viability; IC50 = 0.00234 µM
Structure (SMILES) = CC[C@H](C)[C@H](NC(=O)C[C@H](CCCCN)NC(=O)[C@H](Cc1ccccc1)NC(=O)[C@H]1CCC[C@@H]1NC(=O)CN)C(=O)N[C@H](C(=O)N[C@@H](CCCCN)CC(=O)N[C@@H](CCCCN)C(=O)N[C@H]1CCC[C@@H]1C(=O)N[C@@H](CC(C)C)C(=O)N[C@@H](CCCCN)CC(=O)N[C@@H](CC(C)C)C(=O)N[C@@H](Cc1ccccc1)C(N)=O)[C@@H](C)CC; cell line = NIH 3T3; test = cytotoxicity; IC50 = 18.7 µg/mL
Structure (SMILES) = CCNC(=S)NN=Cc1c2ccccc2cc2ccccc12.Cc1ccc(C(C)C)cc1.[Cl-].[Cl-].[Ru+2]; cell line = Caco-2; test = cytotoxicity, MTS; conditions = 72 h; IC50 = 205 ± 5 µM
Structure (SMILES) = CC[C@H](C)[C@H](NC(=O)C[C@H](CCCCN)NC(=O)[C@H](CCCCN)NC(=O)C[C@@H](NC(=O)[C@@H](NC(=O)C[C@H](CCCCN)NC(=O)[C@H](Cc1ccccc1)NC(=O)C[C@H](CC(C)C)NC(=O)CN)[C@@H](C)CC)[C@@H](C)CC)C(=O)N[C@@H](C)CC(=O)N[C@@H](CCCCN)C(=O)N[C@@H](CO)CC(=O)N[C@@H](Cc1ccccc1)C(N)=O; cell line = NIH 3T3; test = cytotoxicity; IC50 = > 128 µg/mL
Structure (SMILES) = NCc1ccc2c(c1)CN(C1CCC(=O)NC1=O)C2=O (stereo not shown); cell line = Hep3B; test = cell growth or viability, ATP luminescence; conditions = 72 h; IC50 = 0.0733 µM and < 0.1 µM
Structure (SMILES) = CC[C@H](C)[C@H](NC(=O)C[C@H](CCCCN)NC(=O)[C@H](Cc1ccccc1)NC(=O)C[C@H](CC(C)C)NC(=O)CN)C(=O)N[C@H](C(=O)N[C@@H](CCCCN)CC(=O)N[C@@H](CCCCN)C(=O)N[C@H](CC(=O)N[C@@H](CC(C)C)C(=O)N[C@@H](CCCCN)CC(=O)N[C@@H](CC(C)C)C(=O)N[C@@H](Cc1ccccc1)C(N)=O)[C@@H](C)CC)[C@@H](C)CC; cell line = NIH 3T3; test = cytotoxicity; IC50 = 14.7 µg/mL
Structure (SMILES) = O=C(OCc1ccc(O[C@@H]2O[C@H](COC(=O)c3ccc(O)cc3)[C@@H](O)[C@H](O)[C@H]2O)cc1)c1ccc(O)cc1; cell line = MDA-MB-231 breast cancer; test = cell viability, MTT; test system = DMEM with 10% FBS; conditions = 48 h; IC50 = > 200 µM
Structure (SMILES) = CC(C)c1ccc(N(C)c2ccc3c(c2)OCC[C@H]3CNc2cnccc2C(=O)O)cc1; cell line = NCI-H1092; test = cell growth or viability, ATP luminescence; conditions = 7 days; IC50 = 0.00716 µM
Structure (SMILES) = CS(=O)(=O)c1sc(NC(=O)Nc2ccc(Cl)cc2)c2c1C=CCC2; cell line = PANC-1 NUPR1 wild-type clone; test = cell viability; conditions = 72 h; IC50 = 8.2 µM
Structure (SMILES) = CCn1cc(-c2cccc(C(F)(F)F)c2)c2sc(C(=N)NC3CCS(=O)(=O)CC3)cc2c1=O; cell line = MOLM-13; test = cell growth or viability, ATP luminescence; IC50 = 5.97 µM
Structure (SMILES) = CCOc1cncc(-c2ccc(NC(=O)C3(c4ccnc(NS(=O)(=O)C5CC5)n4)CCOCC3)nc2)n1; cell line = IM-9; test = cell growth or viability, ATP luminescence; conditions = 72 h; IC50 = 3.58 µM
Structure (SMILES) = CC(C)=CCc1c(OCC2OC2(C)C)ccc2ccc(=O)oc12 (stereo not shown); cell line = COLO 205; test = cell growth or viability, MTT; conditions = 24 h; IC50 = > 100 µM
Structure (SMILES) = CC[C@H](C)[C@H](NC(=O)[C@H](CCCCN)NC(=O)[C@H](Cc1ccccc1)NC(=O)[C@H]1CCC[C@@H]1NC(=O)CN)C(=O)N[C@H](CC(=O)N[C@@H](CCCCN)C(=O)N[C@@H](CCCCN)C(=O)N[C@H]1CCC[C@@H]1C(=O)N[C@@H](C)C(=O)N[C@@H](CCCCN)C(=O)N[C@@H](CO)C(=O)N[C@H](CC(N)=O)Cc1ccccc1)[C@@H](C)CC; cell line = NIH 3T3; test = cytotoxicity; IC50 = 64.6 µg/mL
Structure (SMILES) = CC(C)(C)c1cnc(CSc2cnc(NC(=O)C3CCN(C(=O)CCCCCCN4Cc5cc6c(cc5C4)C(=O)N(C4CCC(=O)NC4=O)C6=O)CC3)s2)o1 (stereo not shown); cell line = SK-UT-1; test = cell growth or viability, MTT; IC50 = 0.515 µM
Structure (SMILES) = O=C(OC[C@H]1O[C@@H](Oc2ccc(CO)cc2)[C@H](O)[C@@H](O)[C@@H]1O)c1ccc(O)cc1; cell line = MDA-MB-231 breast cancer; test = cell viability, MTT; test system = DMEM with 10% FBS; conditions = 48 h; IC50 = > 200 µM
Structure (SMILES) = NC(=O)c1ccc(-c2ccccc2Cl)c2c3c([nH]c12)CCC(N)C3 (stereo not shown); cell line = U-937; test = cell growth or viability; conditions = 96 h; IC50 = 0.0158 µM
Structure (SMILES) = CC1C(O)CC2(CO)CCC3(C)C(=CCC4C(C)(CCC(=O)O)C(C(C)(O)CO)CCC43C)C2C1C (stereo not shown); cell line = RAW264.7; test = NO release, inhibitor, Griess; conditions = LPS-stimulated; IC50 = > 100 µM
Structure (SMILES) = COc1cc(-c2cn(C)c(=O)c3cnccc23)c(OC)cc1Cn1ccnc1; cell line = EOL1; test = cell growth or viability, ATP luminescence; IC50 = 1.25 µM
Structure (SMILES) = CC#CC#C/C=C1/O[C@@]2(CCCCO2)[C@@H](OC(C)=O)[C@@H]1O; cell line = RAW264.7; test = NO release, inhibitor, Griess; conditions = LPS-stimulated; IC50 = > 50 µM
Structure (SMILES) = CC1(C)[C@H](NC(=O)c2cnn(CCO)c2)C(C)(C)[C@H]1Oc1ccc(C#N)c(Cl)c1; cell line = HCC1428; test = cell growth or viability, CCK-8; conditions = 7 days; IC50 = 3.2 µM
Structure (SMILES) = Cn1ncc(-c2ccc3c(=O)[nH]nc(CN)c3c2)c1-c1c(F)c(Cl)cc(OC2CC2)c1C#N; cell line = SW1088; test = cell viability, inhibitor, CellTiter-Glo; conditions = 120 h, baseline-subtracted; IC50 = 0.02 µM

Excerpt of the above:
Structure (SMILES) = O=C(OCc1ccc(O[C@@H]2O[C@H](COC(=O)c3ccc(O)cc3)[C@@H](O)[C@H](O)[C@H]2O)cc1)c1ccc(O)cc1; cell line = MDA-MB-231 breast cancer; test = cell viability, MTT; test system = DMEM with 10% FBS; conditions = 48 h; IC50 = > 200 µM
Structure (SMILES) = CC1(C)[C@H](NC(=O)c2cnn(CCO)c2)C(C)(C)[C@H]1Oc1ccc(C#N)c(Cl)c1; cell line = HCC1428; test = cell growth or viability, CCK-8; conditions = 7 days; IC50 = 3.2 µM
Structure (SMILES) = CC[C@H](C)[C@H](NC(=O)C[C@H](CCCCN)NC(=O)[C@H](Cc1ccccc1)NC(=O)C[C@H](CC(C)C)NC(=O)CN)C(=O)N[C@H](C(=O)N[C@@H](CCCCN)CC(=O)N[C@@H](CCCCN)C(=O)N[C@H](CC(=O)N[C@@H](CC(C)C)C(=O)N[C@@H](CCCCN)CC(=O)N[C@@H](CC(C)C)C(=O)N[C@@H](Cc1ccccc1)C(N)=O)[C@@H](C)CC)[C@@H](C)CC; cell line = NIH 3T3; test = cytotoxicity; IC50 = 14.7 µg/mL
